Measured values of several laboratories.
Every numbered part comes from another study and shows a few of its results, in no order.

Study 1
Target: UBE2B UBC core domain (UniProt P63146)
UniProt P63146, sequence (whole entry, looked up): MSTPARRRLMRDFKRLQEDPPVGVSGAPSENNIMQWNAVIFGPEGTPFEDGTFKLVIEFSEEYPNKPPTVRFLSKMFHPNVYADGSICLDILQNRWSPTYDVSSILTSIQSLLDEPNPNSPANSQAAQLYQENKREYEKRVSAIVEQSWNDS
Method: yeast two-hybrid
Sample: yeast
Setting: mostly zero background
Reference: not given
Reading: higher = stronger interaction
Quantity: lacZ reporter activity
B1: BFAR RING domain (UniProt Q9NZS9); chain GPQISVSEFSCHCCYDILVNPTTLNCGHSFCRHCLALWWASSKKTECPECREKWEGFPKVS
B2: RNF6 RING domain (UniProt Q9Y252); chain NSIDSELGKICSVCISDYVTGNKLRQLPCMHEFHIHCIDRWLSENCTCPICRQPVLGSNIAN
B3: CNOT4 RING domain (UniProt O95628); chain MSRSPDAKEDPVECPLCMEPLEIDDINFFPCTCGYQICRFCWHRIRTDENGLCPACRKPYPED
B4: RUFY1 RING domain (UniProt Q96T51); chain QALKGHAWLKDDEATHCRQCEKEFSISRRKHHCRNCGHIFCNTCSSNELALPSYPKPVRVCDSCHTLLLQRCSSTAS
B5: VPS8 RING domain (UniProt Q8N3P4); chain TRGLNPKQDYCSICLQQYKRRQEMADEIIVFSCGHLYHSFCLQNKECTVEFEGQTRWTCYKCSSSNKVGKLSE
B6: RNF182 RING domain (UniProt Q8N6D2); chain AESQASDELECKICYNRYNLKQRKPKVLECCHRVCAKCLYKIIDFGDSPQGVIVCPFCRFETCLPDDEV
B7: ARIH2 RING domain (UniProt O95376); chain HVPTSHPPHHCAVCMQFVRKENLLSLACQHQFCRSCWEQHCSVLVKDGVGVGVSCMAQDCPLRTPEDFVF
B8: MID2 RING domain (UniProt Q9UJV3); chain KMETLESELTCPICLELFEDPLLLPCAHSLCFSCAHRILVSSCSSGESIEPITAFQCPTCRYVISLNHRGL
ASPKIFQKTKCSICNSALELPSVHFLCGHSFHQHCFESYSESDADCPTCLPENRKVMDMI (VPS11 RING domain (UniProt Q9H270)): 0
LVKDFNPYITCYICKGYLIKPTTVTECLHTFCKTCIVQHFEDSNDCPRCGNQVHETNPLE (PCGF5 RING domain (UniProt Q86SE9)): 0
LEALSSDFLACKICLEQLRAPKTLPCLHTYCQDCLAQLADGGRVRCPECRETVPVPPEGV (TRIM56 RING domain (UniProt Q9BRZ2)): 0
B1 (BFAR RING domain): 0
FDPPLESKYECPICLMALREAVQTPCGHRFCKACIIKSIRDAGHKCPVDNEILLENQLFP (TRAF6 RING domain (UniProt Q9Y4K3)): 0
B2 (RNF6 RING domain): 0
B3 (CNOT4 RING domain): 0
B4 (RUFY1 RING domain): 0
B5 (VPS8 RING domain): 0
B6 (RNF182 RING domain): 0
FAEQPSVKLCCQLCCSVFKDPVITTCGHTFCRRCALKSEKCPVDNVKLTVVVNNI (TRAF7 RING domain (UniProt Q6Q0C0)): 0
B7 (ARIH2 RING domain): 0
B8 (MID2 RING domain): 0

Study 2
Target: RING finger protein unkempt homolog, zinc fingers 1-6, GST-SBP tag (UNK, Homo sapiens, UniProt Q9C0B0, residues 30-357)
UniProt Q9C0B0, sequence (30-357, looked up): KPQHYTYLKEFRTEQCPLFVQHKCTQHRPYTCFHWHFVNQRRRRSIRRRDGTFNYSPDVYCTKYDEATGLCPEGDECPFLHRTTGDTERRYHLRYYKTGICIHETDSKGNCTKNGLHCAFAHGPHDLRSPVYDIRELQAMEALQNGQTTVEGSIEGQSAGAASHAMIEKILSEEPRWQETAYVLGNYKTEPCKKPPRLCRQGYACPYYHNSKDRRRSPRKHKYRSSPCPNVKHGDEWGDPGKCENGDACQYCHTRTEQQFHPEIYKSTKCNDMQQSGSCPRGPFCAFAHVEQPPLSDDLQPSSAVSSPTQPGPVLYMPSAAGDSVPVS
Method: RNA Bind-n-Seq
Form: RNA
Sample: in vitro
Tested at: not given
Setting: RNA with constant flanks, human and mouse sites, ends assumed
Reference: input RNA pool
Reading: higher = stronger binding
Quantity: bound/input enrichment
All sequences stand within: GGGAGUUCUACAGUCCGACGAUC … CAACAGAGGAUUGAGCAUCA
GACCAGAGGAAGGGAGAGGGUCUUGUCUCCUGUGUCAUAUUGGUCCUUUGAUACUGUGUUGGUUUGGUGUGUGUGUGUGGGUAUGUACUUCCUGUCUGGAUUGCAGAUCUUCAUCUCCCU: 0.33 ratio
AAUCUUCGCCGAUGUACUUACCUUGUAUUGGACGAAGCUGACAGAAUGCUUGAUAUGGGGUUUGAACCCCAGAUCCGUAAAAUUGUUGACCAAAUCAGGCCUGAUAGGCAGACACUGAUG: 0.128 ratio
CCCUCCCCGGGCCACCCACCCCUCCCGGCUCCCCGCCGAGAUCCAGGUUUCUUCUUAUUUCAUAGCAAAUAAGAAAAAUGUUCUACGCACAUUUUGUCCUCAGUAAACGAGGGCCUCUGG: 0.881 ratio
AAGAGGCACAGUUGGUUCAAGGCAAGUGGUACCAUCAAGAAGUUCCGAGCUGGCCUCAGCAUCUUCUCACCCAUUCCCAAGUCUCCCAGUUUUCCUAUCAUACAGGACUCUAUGCUGAAA: 0.137 ratio
AAAGUGGAGAUCCUGCAGCACGUUAUCGACUACAUCCUGGACCUGCAGCUGGCGCUGGAGACUCACCCUGCUUUGCUGAGACAGCCGCCACCGCCCGCGCCACCUCUCCACCCGGCCGGG: 0.2 ratio
CCAACAACAAAAAUUCAAAUCAGGUUAGCAGAUGGGAGUCGUUUGAUACAAAGAUUCAAUAGUACACACAGGAUCCUGGAUGUCCGGAACUUUAUUGUACAGUCUCGUCCUGAAUUUGCG: 0.254 ratio
CCCAAUGGUGUCAUCCCUUUCCAUGGGUUUUCCAUGUAUGUUGCACCAUUGUGUUUUCUGUAUCAUGAACCUUACAAAUUGUAUCAGAUAUUCCGUGAGAUGUACGUCCGCUUUUUCUUC: 0.132 ratio
AAAAACAGGGGUGAGAUAAAGGUCAAUAUUCAGUUUAUGAGGAACAAUAUGACCGCAAGUAUGUUUGACUUAUCAAUGAAGGACAAAACCAGAUCUCCUUUUGCAAAGUUAAAAGAUAAG: 0.278 ratio

Study 3
Target: Histone acetyltransferase KAT6A, both winged helices, GST fusion (KAT6A, Homo sapiens, UniProt Q92794, residues 1-181)
Method: protein binding microarray
Form: double-stranded DNA, one strand shown
Sample: in vitro
Tested at: not given
Setting: 8-mer, flanks averaged, mean of 2 arrays, mostly near background
Reference: not given
Reading: higher = stronger binding
Quantity: E-score
Residues (chain): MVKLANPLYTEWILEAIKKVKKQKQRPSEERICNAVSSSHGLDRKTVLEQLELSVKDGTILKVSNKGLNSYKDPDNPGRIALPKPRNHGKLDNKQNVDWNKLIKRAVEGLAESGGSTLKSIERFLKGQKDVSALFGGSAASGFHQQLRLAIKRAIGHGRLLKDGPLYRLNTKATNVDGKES
ACTTGATA: -0.103
ATAGGGAA: -0.152
GCGACGCA: 0.319
CAGTTATG: -0.149
AAATGATG: -0.00972
TAATGAAA: -0.148
CCCACTAG: -0.153
TACCTACA: -0.0603
CATGGCAA: -0.147
CTGCCACC: -0.151
ACCTCCTG: -0.175
CAGGAACG: 0.144
AAGTTGTG: -0.179
TACCTCTA: -0.141
CGCCCTTC: 0.149
CTCTGTCA: -0.113
AATGTGGC: -0.0301
GGTATCTA: 0.114
CGCAGCAG: 0.139
ACCACACG: -0.0252
GAAAAACC: 0.042
GTCACTCA: -0.169
AGAGGTGG: -0.201
ACCGTTCT: 0.0292
AACGAGCA: -0.181

Study 4
Target: RNA binding protein fox-1 homolog 2, RRM domain, GST-SBP tag (RBFOX2, Homo sapiens, UniProt O43251-10, residues 100-194)
Method: RNA Bind-n-Seq
Form: RNA
Sample: in vitro
Tested at: 365 nM
Setting: natural RNA segment, single round, ends assumed
Reference: no-protein control
Reading: higher = stronger binding
Quantity: RBNS enrichment (R)
All sequences stand within: GGGAGUUCUACAGUCCGACGAUC … UGGAAUUCUCGGGUGCCAA
Target sequence (chain): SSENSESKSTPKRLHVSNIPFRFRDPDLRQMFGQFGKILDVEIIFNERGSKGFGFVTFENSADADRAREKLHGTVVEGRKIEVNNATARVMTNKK
GACGUAAAUUUUGAGAGAAAAGUCAAAGGUGCUUCAGCCUUGUACUGUGUAUAUAUAUUAAAAAAAAAACAAAGUUUUGUAUGUUUUUAUUACUUUAACUAUUGUUAUAA: 1.03
GUUGUGAGAUUGGGACACAUAUCUUGCCCAAUCAGAAGCUGUUUCUUAUCUUGAGAGUUAGGAGCACCAUAGGAUAUGAUGGUCUAUGUGCUGCCAACAGGCUCCCCGAA: 0.513
AUUCAGGAGUGAGCCUCUGUGACCCUUGGGGUGCUCGCAGAAGGCCUCUCCAAGCAGUCAAGCCCUCUUGCAAAUUCAGCCACUGCUUUGAGCCCAAAACGGGAAUAUUA: 0.394
AGGCUUGUGGGUGAUUCCCCGGGCCUUUUCAUUCAAGCUGCACACAAUGAGUCAUUAAAGUUUGUCAAGAAGUUGGUGACCUUAUGCUUGCUUCCAUGCCUGGCCUGGGG: 0.428
UAAGUGUGUAUAUGUAGUAACUAUUUACAGACCACGCAUCCUUAUACUGUGACUUCACCUAGAUCUUCUACCAAGCUGAAGACCCUGCUGGCUCUGAAACAAUCCUUGCA: 3.17
AAUGAACGUUUCUGACUAAUAUUUUGUUGUAAACCAUUAAGUAAUGUAACGCAUGUAAGAUGCUUAGGGUGCCUGGCCAGGACUCCGUGGUUUCCUGUUGUGACAGUAAU: 16.9
UCUUUGAUAACCAACCCAGUGAUUUACAUGCUGAUAGCUAAGUGAGUUUUUAAUGGCCAUUGUGUAUGAUUUUGAUGCACAACUAGUUAAAAGCCUUUCAUACCAGUCAG: 0.248
CUAGAUUUCUGUGUACACACACUUGAUUGUUCUGGAUGAAUGUCUUUUUUAAUACUCCGAAAAUUUCAUCAUCUAAGAAAAUGAUUCCAUACAAAUAACUCAGCACACAA: 1.09

Repeated from above (study 3):
GGTATCTA: 0.114
CGCAGCAG: 0.139
ACCACACG: -0.0252
GAAAAACC: 0.042
GTCACTCA: -0.169
AGAGGTGG: -0.201
ACCGTTCT: 0.0292
AACGAGCA: -0.181
